Assay results gathered from unrelated publications.
Each line is one published result; not all experiments were run side by side. ± gives the spread as reported.
HMGA2 full length assumed: HMGA2 full length assumed (Homo sapiens, UniProt P52926)
Sequence of UniProt P52926 (whole entry, looked up): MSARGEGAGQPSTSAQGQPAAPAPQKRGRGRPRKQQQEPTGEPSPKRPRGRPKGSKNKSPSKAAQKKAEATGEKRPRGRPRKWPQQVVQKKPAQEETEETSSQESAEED
B1: UGT1A9 (Homo sapiens, UniProt O60656); chain GKLLVVPMDGSHWFTMRSVVEKLILRGHEVVVVMPEVSWQLGRSLNCTVKTYSTSYTLEDLDREFKAFAHAQWKAQVRSIYSLLMGSYNDIFDLFFSNCRSLFKDKKLVEYLKESSFDAVFLDPFDNCGLIVAKYFSLPSVVFARGILCHYLEEGAQCPAPLSYVPRILLGFSDAMTFKERVRNHIMHLEEHLLCHRFFKNALEIASEILQTPVTEYDLYSHTSIWLLRTDFVLDYPKPVMPNMIFIGGINCHQGKPLPMEFEAYINASGEHGIVVFSLGSMVSEIPEKKAMAIADALGKIPQTVLWRYTGTRPSNLANNTILVKWLPQNDLLGHPMTRAFITHAGSHGVYESICNGVPMVMMPLFGDQMDNAKRMETKGAGVTLNVLEMTSEDLENALKAVINDKSYKENIMRLSSLHKDRPVEPLDLAVFWVEFVMRHKGAPHLRPAAHDLTWYQYHSLDVIGFLLAVVLTVAFITFKCCAYGYRKCLGKKGRVKKAHKSKTH
Sequence of UniProt P0ACF8 (whole entry, looked up): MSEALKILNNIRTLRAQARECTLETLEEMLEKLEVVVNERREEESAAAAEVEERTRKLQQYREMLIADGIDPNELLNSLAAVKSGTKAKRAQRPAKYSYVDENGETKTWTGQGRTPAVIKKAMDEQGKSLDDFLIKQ
Sequence of UniProt P0A6X3 (whole entry, looked up): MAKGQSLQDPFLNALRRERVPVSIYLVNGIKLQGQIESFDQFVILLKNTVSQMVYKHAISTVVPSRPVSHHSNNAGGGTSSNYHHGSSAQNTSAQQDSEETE
Sequence of UniProt Q61164 (whole entry, looked up): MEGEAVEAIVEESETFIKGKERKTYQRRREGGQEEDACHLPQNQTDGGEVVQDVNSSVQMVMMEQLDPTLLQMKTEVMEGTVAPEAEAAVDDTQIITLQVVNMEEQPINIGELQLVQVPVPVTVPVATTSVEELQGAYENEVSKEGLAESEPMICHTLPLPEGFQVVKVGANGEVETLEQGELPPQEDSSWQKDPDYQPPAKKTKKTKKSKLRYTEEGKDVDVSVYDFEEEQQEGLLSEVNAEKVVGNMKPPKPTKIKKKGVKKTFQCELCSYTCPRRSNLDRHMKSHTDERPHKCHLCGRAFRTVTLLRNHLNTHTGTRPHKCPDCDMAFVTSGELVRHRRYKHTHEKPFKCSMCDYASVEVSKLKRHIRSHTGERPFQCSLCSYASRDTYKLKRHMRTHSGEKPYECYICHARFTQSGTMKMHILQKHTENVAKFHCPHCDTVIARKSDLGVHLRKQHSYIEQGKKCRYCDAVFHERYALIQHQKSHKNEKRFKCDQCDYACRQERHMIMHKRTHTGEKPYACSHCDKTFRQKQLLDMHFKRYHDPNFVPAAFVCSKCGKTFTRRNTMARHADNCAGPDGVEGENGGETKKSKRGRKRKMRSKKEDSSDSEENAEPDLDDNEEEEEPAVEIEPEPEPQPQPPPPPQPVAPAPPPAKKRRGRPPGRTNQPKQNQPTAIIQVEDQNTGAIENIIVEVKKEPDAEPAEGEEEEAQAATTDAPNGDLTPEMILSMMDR
Sequence of UniProt D2W6T1 (whole entry, looked up): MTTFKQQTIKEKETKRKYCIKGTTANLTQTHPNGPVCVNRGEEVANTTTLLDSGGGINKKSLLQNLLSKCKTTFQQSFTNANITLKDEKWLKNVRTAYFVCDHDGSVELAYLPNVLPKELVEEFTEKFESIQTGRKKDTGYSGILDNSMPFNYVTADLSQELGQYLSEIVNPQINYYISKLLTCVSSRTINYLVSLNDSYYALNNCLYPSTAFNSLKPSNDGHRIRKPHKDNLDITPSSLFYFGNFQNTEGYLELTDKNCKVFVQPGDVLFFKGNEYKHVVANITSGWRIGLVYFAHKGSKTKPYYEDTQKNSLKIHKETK

GAGUUGAGUUGAGUUGAGUUGAGUUGAGUUGAGUUGAGUUGAGUUGAGUUGAGUU (ssRNA; single strand)
Kd (mtrB full length assumed T30V (Bacillus subtilis, UniProt P19466); filter binding; with: L-tryptophan 1 mM): 144 ± 22 nM

GGGAGGGAGGGAGAGGGA (ssRNA)
K1/2 (EXOSC3 fragment (Homo sapiens); ELISA; 300 nM): 100 nM

GAGTTGCGGGCACTTTATGACAGATTCATTGTTAGACTTTCAATTCCTTTTGGGATTAATCTTGAAACAATTTTCTCTTAGTTCGTCAGCAATAGAGAGTTCCTTTCAATTCCTTTTGGGATTAATCACTATTGATGAAGTTGCGGAG (dsDNA (Sulfolobus solfataricus))
binding (CRISPR-associated protein full length assumed (Saccharolobus solfataricus, UniProt Q97ZW9); competition; double-stranded DNA, one strand shown; weaker binding): binds weakly

TCGACTGTAAATGACATAGGAAAAC (dsDNA (Homo sapiens))
Ka (HMGA2 full length assumed; EMSA; double-stranded DNA, one strand shown): 3.1e+06 M⁻¹

GCGACCUGGUGGUUCUGGCGGGGUGGCUGCACCCGUUCCCAUUCCGAACACGGCCGUGAAACGCCCCAGCGCCGAUGGUACUUCGUCUUAAGACGCGGGAGAGUAGGUCGCUGCCAGGUCU (structured RNA)
binding (metK 1-426 (Sinorhizobium meliloti, UniProt Q92SI4); filter binding; 0-500 nM): no binding

GACGGCACCACCAGGCUUCUGUAACUUAUAAAAUGGCGGCGUCCACAUGUAUACGUCCUUCCCGGGAUUAGCCAGGCAGCUAGAGGAUGACUUAAUAAGGAGAGUGGAGAAACUGGCCAAUUAAUGAACAUGCCCUGAUCAUUAAUCCACCACUGAAGGAAGUCAGAGCAGAAACUCAAGCAGGGACUUGAAGAAGAAACCAUGGAGGAAUACGGCU (ssRNA)
binding (Ctcf full length assumed (Mus musculus, UniProt Q61164); EMSA): binds weakly

B1 (UGT1A9)
Vmax (O=c1c(O)c(-c2cccc(O)c2)oc2ccccc12; steady-state kinetics; pH 7.4, 37 °C): 0.0031 µmol/min/mg

GGGAGAUUAAUUUGAAUACAAUGCAAUUCUCGAGGACUGAAGUUUCUCGCAAUUAAAAUUUAUCAGUUUUACUUUCUGCUCUCUGGAAACGCCUGCUUCUUUUUUACCUGAGAGCAUUUUUUCGCAUUCUGAUUUCGUUAGUUUAGAUUUUGAAUAUCUUGUCCAGUUAGUAGGAGUGCCACCUUCCUUUUCAAUAGUGGCGGUAAUUUUAUACAU (ssRNA)
binding (hfq full length assumed (Escherichia coli, UniProt P0A6X3); EMSA; with: Mg2+ 1 mM): binds

CTGGAGTACAATTCCATTCCATTCCATTCCATTCCATTCCATTCCATTCCATTCCATTCCATTCCATTCCATTCCATTCCATTCCATTCCTAACTTTCTA (dsDNA)
Kd (F2 alpha-thrombin (Homo sapiens); ITC; double-stranded DNA, one strand shown; pH 6.0): 1020 nM

AGCTTGAGAAGGAGGCGTGGCCAACGCATG (dsDNA)
relative binding (KLF16 fragment (Homo sapiens); EMSA; double-stranded DNA, one strand shown; relative to: ROB consensus, higher = more binding): 5 fold

CCCGGATCCGTAGTGACCAAAGCTATATTTACCAACGAATGTAGATGAAAAAATCATCTCCTGCGTTCCCCCATATCTCTAGGATAAAAAGGAATGTAACAATCTCATGGCGTAAGCTGACGAATCAGCAGGAATAATCGCTAGGGACCTAAGAATTAGCATGATAATAGCCACTAAGAAATTACTGCGCTCCATGAAATAGCCATTTTGTGGCAAATGGAGTTGACTAATAATGTCATATGTGAGACGGCTAGTTGAACGAATATTAAATTTTGCTGAATTTTTTATGTCGACGGG (dsDNA)
binding (hns full length assumed (Escherichia coli, UniProt P0ACF8); DNase I footprinting; double-stranded DNA, one strand shown): binds

GCCAATACGAATTTGGAGAGAGGAAAATATGGCACTAAAATACCGTTTCAAACCAAATGTTAAGGAGGTTTGGCGAATGTC (dsDNA)
binding (HTH arsR-type domain-containing protein (Pyrococcus furiosus, UniProt Q8U4J2); EMSA; double-stranded DNA, one strand shown): binds

ATATTGCGCATTATT (dsDNA)
Ka (HMGA2 full length assumed; EMSA; double-stranded DNA, one strand shown): 3.9e+07 M⁻¹

TGGAACGGAATTCT (dsDNA; blunt, 5mC, 5-BrdU)
binding (TET1 1-321 (Naegleria gruberi, UniProt D2W6T1); X-ray crystallography; double-stranded DNA, one strand shown): binds

AAACTTCGCAAGGCTGTACCCTTGCAATTCTCTTTTGAGTTGTTCCTGCAAATGCTTCAAGATGTTCTGCTAGTGCTTTCTTTATGCGTACTTGCAATTCTCTTTTGAGTTGTTCGCTGCTGCTGGAATTGCTG (dsDNA)
binding (Uncharacterized protein full length assumed (Hyperthermus butylicus, UniProt A2BLH2); trypsin protection; double-stranded DNA, one strand shown): binds

Some of these lines once more:
ATATTGCGCATTATT (dsDNA)
Ka (HMGA2 full length assumed; EMSA; double-stranded DNA, one strand shown): 3.9e+07 M⁻¹

TGGAACGGAATTCT (dsDNA; blunt, 5mC, 5-BrdU)
binding (TET1 1-321 (Naegleria gruberi, UniProt D2W6T1); X-ray crystallography; double-stranded DNA, one strand shown): binds
